{"data": "Measured values gathered from unrelated publications", "note": "Parts stem from different laboratories: compare values within a part only."}
{"data": "Block 1", "target": "RNA binding protein fox-1 homolog 2, RRM domain, GST-SBP tag (RBFOX2, Homo sapiens, UniProt O43251-10, residues 100-194)", "technique": "RNA Bind-n-Seq", "form": "RNA", "matrix": "in vitro", "tested at": "365 nM", "notes": "natural RNA segment, single round, ends assumed", "relative to": "no-protein control", "direction": "higher = stronger binding", "Target sequence (chain)": "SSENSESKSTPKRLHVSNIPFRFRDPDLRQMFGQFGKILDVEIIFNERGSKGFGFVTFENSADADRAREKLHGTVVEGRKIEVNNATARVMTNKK"}
{"Oligonucleotide": "GGGAGUUCUACAGUCCGACGAUCUUUUAUUAUCAAAAUUAUAUUUCUGAUAAAAUAUUUUAAUUUUGAGGUAAUCCUUACAAAAUGAAGGUUUUCAUGCAACUAGAAAUAUAUUUUGAAAUAUAUUUGAUAUAUGGAAUUCUCGGGUGCCAA", "RBNS enrichment (R)": 1.1}
{"Oligonucleotide": "GGGAGUUCUACAGUCCGACGAUCAUAUAGGCCCCCAAAAUGAUCGUAGUACAUGCCAGUCAUUUCUCAGUGAAAUAAAUACAAUACCAGAGUACAUUAUGGGUUUUAUUGCUUUCUUUUAUGGUAGACCUGUUUGGAAUUCUCGGGUGCCAA", "RBNS enrichment (R)": 0.357}
{"Oligonucleotide": "GGGAGUUCUACAGUCCGACGAUCAUUAUCGCGAGUGGUUGACCUUACACUUACUCCUUAAAUAGCAGUGAGUAAUGCAUUUGAGCUGUCCCAGGCUCUGUCUCCUCAGCUCAUUUCCUACUCUUUUUCUCUAUUGGAAUUCUCGGGUGCCAA", "RBNS enrichment (R)": 0.228}
{"Oligonucleotide": "GGGAGUUCUACAGUCCGACGAUCAUAAUCUGAACAGCAAACAGUGCCAUUAAGUGCACAGAUGUUAAUGCAACUAAUGGUUGUGCCAGCUAUUCCCUAGAGGUCCUAGACACACAGACUGCCUUAGCCCCCACUGGAAUUCUCGGGUGCCAA", "RBNS enrichment (R)": 0.325}
{"data": "Block 2", "target": "Histone acetyltransferase KAT6A, both winged helices, GST fusion (KAT6A, Homo sapiens, UniProt Q92794, residues 1-181)", "technique": "protein binding microarray", "form": "double-stranded DNA, one strand shown", "matrix": "in vitro", "tested at": "not given", "notes": "8-mer, flanks averaged, mean of 2 arrays, mostly near background", "relative to": "not given", "direction": "higher = stronger binding", "Residues (chain)": "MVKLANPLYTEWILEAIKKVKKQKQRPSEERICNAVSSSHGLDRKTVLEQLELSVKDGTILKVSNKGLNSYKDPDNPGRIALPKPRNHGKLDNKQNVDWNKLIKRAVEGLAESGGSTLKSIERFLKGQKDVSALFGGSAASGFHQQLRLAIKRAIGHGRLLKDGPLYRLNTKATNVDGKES"}
{"Oligonucleotide": "AAATACAG", "E-score": -0.23}
{"Oligonucleotide": "AAGAGCGT", "E-score": 0.143}
{"Oligonucleotide": "CACACTGC", "E-score": -0.0188}
{"data": "Mixed results", "T1": "itself; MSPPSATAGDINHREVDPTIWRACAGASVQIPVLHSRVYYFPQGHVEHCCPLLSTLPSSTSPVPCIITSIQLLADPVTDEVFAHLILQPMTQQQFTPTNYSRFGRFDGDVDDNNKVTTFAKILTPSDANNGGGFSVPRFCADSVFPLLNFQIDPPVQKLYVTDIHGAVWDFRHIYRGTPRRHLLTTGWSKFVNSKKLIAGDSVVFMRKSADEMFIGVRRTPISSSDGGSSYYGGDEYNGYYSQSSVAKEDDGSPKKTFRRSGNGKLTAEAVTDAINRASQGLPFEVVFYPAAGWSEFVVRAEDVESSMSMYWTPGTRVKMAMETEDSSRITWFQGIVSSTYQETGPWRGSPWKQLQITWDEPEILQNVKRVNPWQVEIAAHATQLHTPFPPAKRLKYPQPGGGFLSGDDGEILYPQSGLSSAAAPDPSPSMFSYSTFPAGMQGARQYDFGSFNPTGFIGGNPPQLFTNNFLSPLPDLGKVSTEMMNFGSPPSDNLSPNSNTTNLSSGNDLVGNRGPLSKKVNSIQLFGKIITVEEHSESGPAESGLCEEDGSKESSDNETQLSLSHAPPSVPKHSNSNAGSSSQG"}
{"Molecule": "PhoQ, residues 284 288 289 292 302 303 SSCLAV", "tested on": "PhoP, residues 12 14 15 18 19 NMSFL (Escherichia coli, UniProt P23836)", "assay": "Sort-seq, measured: YFP reporter", "system": "E. coli", "setting": "PhoQ-PhoP variant library, with: 10 µM Mg2+", "scale": "relative to: high Mg2+ state, higher = stronger signaling", "measurement": "fold induction", "result": 1.73}
{"Molecule": "ARF17 (Arabidopsis thaliana, UniProt Q84WU6)", "tested on": "T1, itself", "assay": "two-hybrid", "setting": "weak activation fusion", "scale": "relative to: out of 4 tests, higher = firmer interaction", "measurement": "positive tests", "result": 0}
{"note": "Some of these lines once more (block 2):"}
{"Oligonucleotide": "AAATACAG", "E-score": -0.23}
